Results pooled from the literature.
Every numbered part comes from another study and shows a few of its results, in no order. Several values in a cell are separate wells, animals, samples, runs or records.
Chain of UniProt Q8NG66 (whole entry, looked up): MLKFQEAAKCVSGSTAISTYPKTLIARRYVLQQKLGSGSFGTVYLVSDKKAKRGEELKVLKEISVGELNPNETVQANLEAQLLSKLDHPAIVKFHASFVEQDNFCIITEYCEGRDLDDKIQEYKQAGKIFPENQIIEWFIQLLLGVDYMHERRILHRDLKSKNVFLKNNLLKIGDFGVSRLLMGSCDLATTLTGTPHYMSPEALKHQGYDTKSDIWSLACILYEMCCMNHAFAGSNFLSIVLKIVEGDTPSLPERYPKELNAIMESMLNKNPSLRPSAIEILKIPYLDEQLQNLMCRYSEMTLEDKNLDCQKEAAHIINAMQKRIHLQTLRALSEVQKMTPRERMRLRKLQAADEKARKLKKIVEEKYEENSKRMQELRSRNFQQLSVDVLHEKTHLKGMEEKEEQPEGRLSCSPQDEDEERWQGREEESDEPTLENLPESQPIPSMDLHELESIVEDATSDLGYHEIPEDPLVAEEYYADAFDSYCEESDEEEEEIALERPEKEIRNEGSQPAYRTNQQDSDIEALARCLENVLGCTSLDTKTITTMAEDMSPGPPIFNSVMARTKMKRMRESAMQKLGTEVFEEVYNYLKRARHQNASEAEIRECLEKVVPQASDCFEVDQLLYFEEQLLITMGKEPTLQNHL
Chain of UniProt Q86Z02 (whole entry, looked up): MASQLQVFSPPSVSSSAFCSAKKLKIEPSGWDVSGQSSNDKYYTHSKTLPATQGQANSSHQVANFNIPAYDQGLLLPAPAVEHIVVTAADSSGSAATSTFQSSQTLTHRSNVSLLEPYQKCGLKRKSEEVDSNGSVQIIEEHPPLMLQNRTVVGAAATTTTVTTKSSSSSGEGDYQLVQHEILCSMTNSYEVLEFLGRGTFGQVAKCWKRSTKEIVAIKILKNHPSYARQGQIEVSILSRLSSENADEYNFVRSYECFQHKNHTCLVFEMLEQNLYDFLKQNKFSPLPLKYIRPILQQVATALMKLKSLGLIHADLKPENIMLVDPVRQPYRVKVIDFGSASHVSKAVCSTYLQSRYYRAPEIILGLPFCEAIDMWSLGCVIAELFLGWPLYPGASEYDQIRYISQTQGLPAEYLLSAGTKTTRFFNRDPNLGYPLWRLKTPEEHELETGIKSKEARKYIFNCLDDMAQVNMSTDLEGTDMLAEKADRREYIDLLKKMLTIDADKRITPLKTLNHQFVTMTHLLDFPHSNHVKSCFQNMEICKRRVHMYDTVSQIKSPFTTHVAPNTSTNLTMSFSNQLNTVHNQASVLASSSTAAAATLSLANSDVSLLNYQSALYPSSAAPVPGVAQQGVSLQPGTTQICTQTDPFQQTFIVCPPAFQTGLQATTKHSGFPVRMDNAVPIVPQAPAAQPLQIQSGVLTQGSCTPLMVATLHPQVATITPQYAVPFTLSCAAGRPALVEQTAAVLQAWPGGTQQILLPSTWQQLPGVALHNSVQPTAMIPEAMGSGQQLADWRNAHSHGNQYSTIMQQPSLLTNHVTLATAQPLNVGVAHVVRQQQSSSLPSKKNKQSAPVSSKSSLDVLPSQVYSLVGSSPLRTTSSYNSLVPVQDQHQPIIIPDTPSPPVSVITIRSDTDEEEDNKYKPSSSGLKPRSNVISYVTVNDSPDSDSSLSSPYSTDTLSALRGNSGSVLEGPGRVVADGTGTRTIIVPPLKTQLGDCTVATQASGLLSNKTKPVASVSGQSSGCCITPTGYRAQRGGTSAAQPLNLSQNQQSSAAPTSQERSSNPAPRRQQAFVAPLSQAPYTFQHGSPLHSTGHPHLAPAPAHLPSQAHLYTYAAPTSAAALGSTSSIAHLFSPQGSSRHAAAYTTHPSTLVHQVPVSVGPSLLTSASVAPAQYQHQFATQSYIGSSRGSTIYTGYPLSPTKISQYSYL
Chain of UniProt P31749 (whole entry, looked up): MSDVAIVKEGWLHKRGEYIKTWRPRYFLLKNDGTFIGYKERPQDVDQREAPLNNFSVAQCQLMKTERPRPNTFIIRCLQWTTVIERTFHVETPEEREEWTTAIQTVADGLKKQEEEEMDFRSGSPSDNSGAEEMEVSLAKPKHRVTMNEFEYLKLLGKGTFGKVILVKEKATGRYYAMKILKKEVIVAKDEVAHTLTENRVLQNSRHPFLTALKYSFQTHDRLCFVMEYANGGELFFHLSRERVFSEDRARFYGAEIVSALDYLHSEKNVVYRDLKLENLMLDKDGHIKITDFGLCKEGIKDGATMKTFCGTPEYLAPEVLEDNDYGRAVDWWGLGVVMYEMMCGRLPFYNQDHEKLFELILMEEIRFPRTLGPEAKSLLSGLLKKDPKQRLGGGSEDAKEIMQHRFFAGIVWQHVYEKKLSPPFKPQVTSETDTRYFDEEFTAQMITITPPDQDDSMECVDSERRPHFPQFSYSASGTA

Sample 1
Target: DNA polymerase theta, ATPase domain (POLQ, Homo sapiens, UniProt O75417)
Chain of UniProt O75417 (whole entry, unmodified, looked up): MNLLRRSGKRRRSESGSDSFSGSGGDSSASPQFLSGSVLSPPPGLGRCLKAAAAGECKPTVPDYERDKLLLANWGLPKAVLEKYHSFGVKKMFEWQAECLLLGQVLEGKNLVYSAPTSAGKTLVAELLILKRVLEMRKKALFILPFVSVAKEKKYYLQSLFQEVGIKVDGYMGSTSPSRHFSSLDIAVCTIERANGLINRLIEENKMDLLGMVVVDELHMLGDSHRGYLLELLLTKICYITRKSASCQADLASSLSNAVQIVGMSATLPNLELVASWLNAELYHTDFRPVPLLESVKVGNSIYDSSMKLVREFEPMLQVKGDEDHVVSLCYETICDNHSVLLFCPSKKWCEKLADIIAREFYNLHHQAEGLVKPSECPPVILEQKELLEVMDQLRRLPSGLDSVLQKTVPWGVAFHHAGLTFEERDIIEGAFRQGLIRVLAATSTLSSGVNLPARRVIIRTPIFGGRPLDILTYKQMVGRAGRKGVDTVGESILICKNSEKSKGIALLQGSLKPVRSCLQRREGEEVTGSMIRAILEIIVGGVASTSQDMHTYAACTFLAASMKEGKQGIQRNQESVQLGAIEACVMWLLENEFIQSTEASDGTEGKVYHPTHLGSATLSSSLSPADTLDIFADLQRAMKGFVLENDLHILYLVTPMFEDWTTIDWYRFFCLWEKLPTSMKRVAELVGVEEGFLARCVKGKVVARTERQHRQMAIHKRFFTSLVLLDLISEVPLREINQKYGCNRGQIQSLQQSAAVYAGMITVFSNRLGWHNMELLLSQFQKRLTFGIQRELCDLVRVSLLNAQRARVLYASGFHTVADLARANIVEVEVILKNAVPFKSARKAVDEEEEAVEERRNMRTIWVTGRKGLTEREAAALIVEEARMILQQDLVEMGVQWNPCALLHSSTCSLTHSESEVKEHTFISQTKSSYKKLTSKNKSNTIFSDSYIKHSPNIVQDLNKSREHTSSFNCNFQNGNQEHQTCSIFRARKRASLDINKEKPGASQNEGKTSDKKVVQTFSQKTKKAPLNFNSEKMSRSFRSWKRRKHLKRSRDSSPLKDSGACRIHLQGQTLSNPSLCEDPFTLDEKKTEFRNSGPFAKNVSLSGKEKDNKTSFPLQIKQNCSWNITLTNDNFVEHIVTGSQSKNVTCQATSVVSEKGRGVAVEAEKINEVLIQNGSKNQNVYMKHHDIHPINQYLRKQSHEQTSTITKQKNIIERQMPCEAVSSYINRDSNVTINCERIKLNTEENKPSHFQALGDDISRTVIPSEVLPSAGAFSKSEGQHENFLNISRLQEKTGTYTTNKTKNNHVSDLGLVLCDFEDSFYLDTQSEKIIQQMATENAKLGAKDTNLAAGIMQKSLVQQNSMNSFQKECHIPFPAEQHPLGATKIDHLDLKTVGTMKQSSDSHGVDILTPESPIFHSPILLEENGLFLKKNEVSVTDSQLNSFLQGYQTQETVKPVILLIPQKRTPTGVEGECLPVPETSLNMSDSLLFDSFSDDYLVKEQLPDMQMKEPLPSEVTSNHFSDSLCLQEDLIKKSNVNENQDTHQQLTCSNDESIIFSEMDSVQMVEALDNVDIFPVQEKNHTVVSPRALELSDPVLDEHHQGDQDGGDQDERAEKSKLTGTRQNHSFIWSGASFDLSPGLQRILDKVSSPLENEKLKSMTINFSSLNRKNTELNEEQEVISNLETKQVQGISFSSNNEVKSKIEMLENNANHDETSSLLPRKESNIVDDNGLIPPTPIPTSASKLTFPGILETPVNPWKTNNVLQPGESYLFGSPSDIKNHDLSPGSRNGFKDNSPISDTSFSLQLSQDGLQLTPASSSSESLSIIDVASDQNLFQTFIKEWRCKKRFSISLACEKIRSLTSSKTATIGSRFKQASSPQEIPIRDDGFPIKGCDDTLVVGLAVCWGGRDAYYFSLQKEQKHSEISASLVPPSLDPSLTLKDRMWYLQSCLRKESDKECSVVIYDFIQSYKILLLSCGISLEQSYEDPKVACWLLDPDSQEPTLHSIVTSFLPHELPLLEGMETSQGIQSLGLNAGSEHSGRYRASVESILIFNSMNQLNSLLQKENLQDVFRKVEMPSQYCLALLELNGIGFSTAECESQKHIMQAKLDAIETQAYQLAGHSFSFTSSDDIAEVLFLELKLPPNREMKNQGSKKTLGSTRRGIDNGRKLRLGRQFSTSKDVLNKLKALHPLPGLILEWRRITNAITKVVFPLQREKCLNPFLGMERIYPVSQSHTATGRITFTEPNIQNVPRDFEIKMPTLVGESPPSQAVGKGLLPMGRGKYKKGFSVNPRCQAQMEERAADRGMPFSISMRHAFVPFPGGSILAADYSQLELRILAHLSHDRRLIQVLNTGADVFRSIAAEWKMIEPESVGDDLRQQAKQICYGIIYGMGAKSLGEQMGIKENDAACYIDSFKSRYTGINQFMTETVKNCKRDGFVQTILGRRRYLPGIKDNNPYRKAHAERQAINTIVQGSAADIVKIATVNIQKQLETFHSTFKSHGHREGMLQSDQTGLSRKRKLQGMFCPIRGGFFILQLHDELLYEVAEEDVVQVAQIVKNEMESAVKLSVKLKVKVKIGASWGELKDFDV
Read-out: enzyme activity
Action: inhibitor
Tested at: 77 µM
Baseline: untreated
Measurement: remaining activity
NC(=O)c1ccc[n+]([C@@H]2O[C@H](COP(=O)([O-])OP(=O)(O)OC[C@H]3O[C@@H](n4cnc5c(N)ncnc54)[C@H](O)[C@@H]3O)[C@@H](O)[C@H]2O)c1: 77.8%
O=c1c(O)c(-c2ccc(O)c(O)c2)oc2cc(O)ccc12: 103%
CCCCOc1cc(C(=O)NCCN(CC)CC)c2ccccc2n1: 101% and 95.2%
O=C(O)C1=CCCN(CCON=C(c2ccccc2)c2ccccc2)C1: 93.9%
Nc1ccc(S(=O)(=O)Nc2cnc3ccccc3n2)cc1: 104%
COCCOc1cc2ncnc(Cl)c2cc1OCCOC: 105%
O=C(O)C1=CCCNC1: 111%
CS(=O)(=O)N1CCc2c(-c3cnc(N)nc3)nc(N3CCOCC3)nc21: 102%
O=c1cc(N2CCOCC2)oc2c(-c3cccc4c3sc3ccccc34)cccc12: 88.8%
CC1COC2(CCN(c3nc(=O)c4cc(C(F)(F)F)cc([N+](=O)[O-])c4s3)CC2)O1 (racemic): 92.3%
c1ccc2c(c1)CCCc1cc(NCCN3CCOCC3)nnc1-2: 96.2%
COCCCOc1cc(C[C@@H](C[C@H](N)[C@@H](O)C[C@H](C(=O)NCC(C)(C)C(N)=O)C(C)C)C(C)C)ccc1OC: 92.6%
CCC(=O)[C@@]1(C)[C@H](C)C[C@H]2[C@@H]3CCC4=CC(=O)C=C[C@]4(C)[C@H]3[C@@H](O)C[C@@]21C: 104%
C=C[C@]1(C)C[C@@H](OC(=O)CS[C@@H]2C[C@H]3CC[C@@H](C2)N3C)[C@]2(C)[C@H](C)CC[C@]3(CCC(=O)[C@H]32)[C@@H](C)[C@@H]1O: 98.5%
O=C(CCCCCN1C(=O)c2cccc3cccc(c23)C1=O)NO: 102%
CN(c1ncccc1CNc1nc(Nc2ccc3c(c2)CC(=O)N3)ncc1C(F)(F)F)S(C)(=O)=O: 102% and 98.4% and 106% and 103% and 94.4%
CCN(CC)CCNC(=O)c1c(C)[nH]c(/C=C2\C(=O)Nc3ccc(Cl)cc32)c1C: 100%
CCC1NC(=O)c2cc(S(N)(=O)=O)c(Cl)cc2N1 (stereo not shown): 100%
CC1(C)CC(=O)c2c(C(F)(F)F)nn(-c3ccc(C(N)=O)c(N[C@H]4CC[C@H](OC(=O)CN)CC4)c3)c2C1: 97.3%

Sample 2
Cell line: mouse MPNST tumor cells
Method: high-content immunofluorescence imaging
Refers to: nuclear SOX9
Tested at: 10 µM
Time: 12 h
Notes: mean of 2 replicates
Baseline: DMSO control
Reading: higher = more nuclear SOX9
Measurement: nuclear SOX9 intensity
Nc1ncn([C@@H]2O[C@H](CO)[C@@H](O)[C@H]2O)c(=O)n1: 113 % of DMSO
N=C(N)NCCC[C@H](NC(=O)CC1(CC(=O)N2CCN(C3c4ccccc4NC(=O)c4ccccc43)CC2)CCCC1)C(=O)NCCn1c(=O)n(-c2ccccc2)n(-c2ccccc2)c1=O (stereo partly shown): 109 % of DMSO
Cc1cc2c(cc1Cl)N(C(=O)Nc1ccc(Oc3cccnc3C)nc1)CC2: 117 % of DMSO
O=C(Nc1ccccc1)C12CC1C(=NO)c1ccccc1O2 (stereo not shown): 109 % of DMSO
CN1CCC[C@@H]1Cc1c[nH]c2ccc(CCS(=O)(=O)c3ccccc3)cc12: 117 % of DMSO
O=C(O)CCC(=O)Nc1ccc(S(=O)(=O)Nc2nccs2)cc1: 67.5 % of DMSO
CC(C)n1nc(-c2cc3cc(O)ccc3[nH]2)c2c(N)ncnc21: 170 % of DMSO
CNCC(O)c1ccc(O)c(O)c1 (stereo not shown): 97.3 % of DMSO
Nc1nccc(-c2ccc3noc(-c4ccc(Cl)cc4)c3c2)n1: 106 % of DMSO
CN1C(C(=O)Nc2ccccn2)=C(O)c2ccccc2S1(=O)=O: 104 % of DMSO
O=C(Nc1ccc(Cl)nc1)c1ccc(Cl)cc1: 111 % of DMSO
CN(C)CCOc1ccc(/C(=C(/CCCl)c2ccccc2)c2ccccc2)cc1: 185 % of DMSO
CC(C)[C@H](O)C(=O)N[C@@H](C)C(=O)N[C@@H]1C(=O)N(C)CCc2ccccc21: 103 % of DMSO

Sample 3
Compound: O=C1Nc2ccccc2/C1=C\c1c(Cl)[nH]c2ccccc12
Read-out: enzyme activity
Action: inhibitor
Tested at: 0.5 µM
Baseline: control
Measurement: remaining activity
ALK tyrosine kinase receptor (ALK, Homo sapiens, UniProt Q9UM73): 97.9%
Megakaryocyte-associated tyrosine-protein kinase (MATK, Homo sapiens, UniProt P42679): 89.5%
Serine/threonine-protein kinase Nek11 (NEK11, Homo sapiens, UniProt Q8NG66): 98.5%
Insulin receptor (INSR, Homo sapiens, UniProt P06213): 91.2%
Proto-oncogene tyrosine-protein kinase Src (SRC, Homo sapiens, UniProt P12931): 78.5%
cAMP-dependent protein kinase catalytic subunit PRKX (PRKX, Homo sapiens, UniProt P51817): 106%
Serine/threonine-protein kinase TAO3 (TAOK3, Homo sapiens, UniProt Q9H2K8): 93.9%
RAC-alpha serine/threonine-protein kinase (AKT1, Homo sapiens, UniProt P31749): 94%
Serine/threonine-protein kinase 25 (STK25, Homo sapiens, UniProt O00506): 97.7%
Tyrosine-protein kinase Fyn (FYN, Homo sapiens, UniProt P06241): 101%
Serine/threonine-protein kinase NLK (NLK, Homo sapiens, UniProt Q9UBE8): 107%
Vascular endothelial growth factor receptor 3 (FLT4, Homo sapiens, UniProt P35916): 108%
LIM domain kinase 1 (LIMK1, Homo sapiens, UniProt P53667): 109%
Tyrosine-protein kinase Fer (FER, Homo sapiens, UniProt P16591): 91.8%
Homeodomain-interacting protein kinase 1 (HIPK1, Homo sapiens, UniProt Q86Z02): 100%
PAS domain-containing serine/threonine-protein kinase (PASK, Homo sapiens, UniProt Q96RG2): 89.3%
MAP/microtubule affinity-regulating kinase 3 (MARK3, Homo sapiens, UniProt P27448): 104%
Tyrosine-protein kinase ITK/TSK (ITK, Homo sapiens, UniProt Q08881): 104%
Tyrosine-protein kinase Fgr (FGR, Homo sapiens, UniProt P09769): 90.5%
Serine/threonine-protein kinase MRCK alpha (CDC42BPA, Homo sapiens, UniProt Q5VT25): 95.7%
Serine/threonine-protein kinase N1 (PKN1, Homo sapiens, UniProt Q16512): 94.6%
Cyclin-dependent kinase 3, with cyclin E (CDK3, Homo sapiens, UniProt Q00526): 94.1%

Sample 4
SMILES: O=C(Nc1ccc(-n2nc(-c3cccnc3)cc2C(F)(F)F)cn1)c1ccc(-c2ccccc2)c(F)c1
Read-out: binding
Method: radioligand binding
Tested at: 10 µM
Measurement: inhibition
5-hydroxytryptamine receptor 1D (HTR1D, Homo sapiens, UniProt P28221): -9.83%
5-hydroxytryptamine receptor 3A (HTR3A, Homo sapiens, UniProt P46098): -8.89%
5-hydroxytryptamine receptor 1E (HTR1E, Homo sapiens, UniProt P28566): -4.45%
5-hydroxytryptamine receptor 2B (HTR2B, Homo sapiens, UniProt P41595): 9.91%

Repeated from above (sample 1):
NC(=O)c1ccc[n+]([C@@H]2O[C@H](COP(=O)([O-])OP(=O)(O)OC[C@H]3O[C@@H](n4cnc5c(N)ncnc54)[C@H](O)[C@@H]3O)[C@@H](O)[C@H]2O)c1: 77.8%
CCCCOc1cc(C(=O)NCCN(CC)CC)c2ccccc2n1: 101% and 95.2%
CCC(=O)[C@@]1(C)[C@H](C)C[C@H]2[C@@H]3CCC4=CC(=O)C=C[C@]4(C)[C@H]3[C@@H](O)C[C@@]21C: 104%
CCN(CC)CCNC(=O)c1c(C)[nH]c(/C=C2\C(=O)Nc3ccc(Cl)cc32)c1C: 100%
O=c1cc(N2CCOCC2)oc2c(-c3cccc4c3sc3ccccc34)cccc12: 88.8%
